{"data": "Measurements pooled from the literature", "note": "Every numbered part comes from another study and shows a few of its results, in no order."}
{"data": "Study 1", "target": "Prothrombin, mature alpha-thrombin (F2, Homo sapiens, UniProt P00734)", "technique": "aptamer microarray, sandwich", "form": "DNA with 2'F-ANA", "matrix": "in vitro", "concentration": "200 nM", "notes": "whole 15-mer aptamer, many near background", "with": "Cy3 exosite-II aptamer, 400 nM", "reading": "higher = stronger binding"}
{"Sequence": "GGTTGGTGTGGTTGG (2'F-ANA at 1 2 6 7 8 9 13)", "mean fluorescence intensity [a.u.]": 100}
{"Sequence": "GGTTGGTGTGGTTGG (2'F-ANA at 2 3 6 11 13 14 15)", "mean fluorescence intensity [a.u.]": 354}
{"Sequence": "GGTTGGTGTGGTTGG (2'F-ANA at 2 3 5 7 8 10 11 12 13)", "mean fluorescence intensity [a.u.]": 58.9}
{"data": "Study 2", "target": "Sal-like protein 4, full length isoform A (SALL4, Homo sapiens, UniProt Q9UJQ4, residues 1-1053)", "technique": "universal PBM", "form": "double-stranded DNA, one strand shown", "matrix": "in vitro", "concentration": "600 nM", "notes": "8-mer, flanks averaged, mean of replicates", "reading": "higher = stronger binding", "UniProt Q9UJQ4, sequence (whole entry, looked up)": "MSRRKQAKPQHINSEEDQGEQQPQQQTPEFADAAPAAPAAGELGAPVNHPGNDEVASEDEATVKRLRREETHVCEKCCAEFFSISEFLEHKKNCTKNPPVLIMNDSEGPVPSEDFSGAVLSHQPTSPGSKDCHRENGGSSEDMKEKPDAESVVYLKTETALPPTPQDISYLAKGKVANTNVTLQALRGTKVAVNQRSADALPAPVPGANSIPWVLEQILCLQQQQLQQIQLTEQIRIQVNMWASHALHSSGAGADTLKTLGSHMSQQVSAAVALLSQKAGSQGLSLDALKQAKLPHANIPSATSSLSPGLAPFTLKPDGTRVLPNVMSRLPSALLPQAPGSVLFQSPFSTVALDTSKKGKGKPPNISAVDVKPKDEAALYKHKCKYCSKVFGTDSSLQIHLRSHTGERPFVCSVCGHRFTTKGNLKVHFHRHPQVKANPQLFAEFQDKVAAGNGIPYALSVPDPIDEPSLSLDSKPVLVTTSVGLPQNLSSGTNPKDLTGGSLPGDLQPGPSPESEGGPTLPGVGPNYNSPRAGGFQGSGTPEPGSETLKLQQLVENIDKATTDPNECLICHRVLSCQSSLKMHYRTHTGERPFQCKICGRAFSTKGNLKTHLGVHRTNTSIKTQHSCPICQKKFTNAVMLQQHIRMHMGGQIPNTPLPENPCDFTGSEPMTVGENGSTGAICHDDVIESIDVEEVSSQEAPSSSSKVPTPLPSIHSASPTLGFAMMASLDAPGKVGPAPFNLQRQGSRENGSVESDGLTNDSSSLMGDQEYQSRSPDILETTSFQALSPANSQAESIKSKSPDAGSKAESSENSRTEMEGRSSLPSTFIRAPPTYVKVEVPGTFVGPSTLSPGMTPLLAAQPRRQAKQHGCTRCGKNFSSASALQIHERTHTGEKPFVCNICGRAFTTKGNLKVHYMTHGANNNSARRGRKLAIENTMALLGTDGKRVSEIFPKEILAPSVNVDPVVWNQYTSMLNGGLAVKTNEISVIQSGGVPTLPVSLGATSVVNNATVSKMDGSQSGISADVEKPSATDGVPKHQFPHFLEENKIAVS"}
{"Sequence": "ATAGGCAG", "E-score": 0.24}
{"Sequence": "TGGAGGAA", "E-score": 0.00713}
{"Sequence": "GCATCAGC", "E-score": -0.164}
{"data": "Single results of other studies", "IRF5 S451D/S453D/S456D/S462D full length, phosphomimetic": "Interferon regulatory factor 5, full length, phosphomimetic (IRF5, Homo sapiens, UniProt Q13568-2, residues 1-514, S451D/S453D/S456D/S462D)"}
{"Molecule": "GCCTAGCACTTAGGTTCTCTTTTCCTTTAGTGCTAGGTCTTGATTCGCTTGACGCTGCTG", "target": "IRF5 S451D/S453D/S456D/S462D full length, phosphomimetic", "test": "protein-binding microarray", "system": "double-stranded DNA, one strand shown, in vitro", "conditions": "940 nM top, 60-bp whole probe, with: salmon DNA 0.4 mg/ml", "scale": "reference: random background probes, higher = stronger binding", "measurement": "fitted relative affinity", "value": "0.849 z-score"}
{"Molecule": "PhoQ, residues 284 288 289 292 302 303 AGHLVA", "target": "PhoP, residues 12 14 15 18 19 AQALL (Escherichia coli, UniProt P23836)", "test": "Sort-seq, refers to: YFP reporter", "system": "E. coli", "conditions": "PhoQ-PhoP variant library, with: 10 µM Mg2+", "scale": "reference: high Mg2+ state, higher = stronger signaling", "measurement": "fold induction", "value": 30.5}
{"Molecule": "GCCTAGCACTTAGATATCAGACTGCATTAGTGCTAGGTCTTGATTCGCTTGACGCTGCTG", "target": "IRF5 S451D/S453D/S456D/S462D full length, phosphomimetic", "test": "protein-binding microarray", "system": "double-stranded DNA, one strand shown, in vitro", "conditions": "940 nM top, 60-bp whole probe, with: salmon DNA 0.4 mg/ml", "scale": "reference: random background probes, higher = stronger binding", "measurement": "fitted relative affinity", "value": "-0.459 z-score"}
